Published values from different studies.
CDK5 with p35: Cyclin-dependent kinase 5, with p35 (CDK5, Homo sapiens, UniProt Q00535)
CDK5 with p25: Cyclin-dependent kinase 5, with p25 (CDK5, Homo sapiens, UniProt Q00535)

C=CC(=O)N1Cc2nc(-c3cc(-c4cc(Cl)cnc4Cl)c(F)cc3F)n(-c3ccncn3)c2C1  inhibition (CDK5 with p35; cell-free assay, inhibitor; 1 µM): -0.7%
NC(=O)[C@@H](O)C[C@H]1CCc2sc3ncnc(O[C@H]4CC[C@H](N5CCOCC5)CC4)c3c21  inhibition (CDK5 with p25; enzyme activity, inhibitor; 10 µM): 17%
C=CC(=O)Nc1cccc(-c2cnc3[nH]cc(C(=O)NC(C)(C)C)c3n2)c1  inhibition (CDK5 with p25; kinase activity; 0.1 µM): 16%
CCn1cc(C(=O)O)c(=O)c2c(N)c(F)c(NC3CCCCC3)cc21  inhibition (CDK5 with p35; kinase activity; 0.1 µM, with: ATP at Km): 29.2%
CN1CC[C@@H](COc2cnc(C#N)cc2-c2ccn3nc(NC(=O)C4CC4)cc3c2)C1  inhibition (CDK5 with p35; enzyme activity, inhibitor; 1 µM): 7%
Cc1cccc(O[C@H]2CCC[C@@H](C(C)CNCc3ccncc3)C2)c1 (relative stereo)  inhibition (CDK5 (Homo sapiens, UniProt Q00535); enzyme activity, inhibitor; 10 µM): -8%
NC(=O)C[C@H]1CCc2sc3ncnc(O[C@H]4CC[C@H](N5CCOCC5)CC4)c3c21  inhibition (CDK5 with p35; enzyme activity, inhibitor; 10 µM): 32%
COc1ccc(C(=O)/C=C/c2ccccc2-c2c[nH]c3ccc(C#N)cc23)c(O)c1  inhibition (CDK5 with p35; enzyme activity, inhibitor; 20 µM): 8%
CN1CCN(Cc2ccc(-c3ccc(CO[C@H]4CCC[C@@H]4NC(=O)c4cc(-c5cnn(C)c5)cnc4N)cc3)cc2)CC1  inhibition (CDK5 with p35; enzyme activity, inhibitor; 0.1 µM): 2%
